# Experimental data pooled from the literature.
# Parts stem from different laboratories: compare values within a part only.

# Set 1
# Target: Sox, HMG box (Pigoraptor chileana)
# Method: Spec-seq
# Form: double-stranded DNA, one strand shown
# Matrix: in vitro
# Concentration: not given
# Setting: whole probe, mean of replicates
# Reference: not given
# Direction: lower = stronger binding
# Constant ends, left off below: GAGTCGTCTCGTCAGCAC … CCGTAGAGCACTCAGGTC
# Target sequence (chain): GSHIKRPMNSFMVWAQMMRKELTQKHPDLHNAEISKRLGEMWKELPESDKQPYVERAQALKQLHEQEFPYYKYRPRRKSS
Strand,relative binding energy
CATTAAC,-0.0112 ln ratio
CTTTGTT,-2.99 ln ratio
CATCACC,0.482 ln ratio
CATAGAC,-0.34 ln ratio
CATATCG,0.416 ln ratio
GCTTGTT,-1.95 ln ratio
TTTAGTT,0.0418 ln ratio
CATGGCT,0.683 ln ratio
CATACCA,0 ln ratio
CATTAGA,0.153 ln ratio
CATGTCG,0.796 ln ratio
GTTGGTT,0.954 ln ratio
TCACGTT,0.959 ln ratio
CATCATT,0.263 ln ratio
CATGCTC,0.596 ln ratio
CATATTC,0.261 ln ratio
TAGCGTT,0.835 ln ratio
CATTCAC,-0.149 ln ratio
CATCATA,0.199 ln ratio
CATCAGC,0.386 ln ratio
AAAGGTT,-2.09 ln ratio
CGCGGTT,0.649 ln ratio
CATGTTA,0.629 ln ratio

# Set 2
# Target: RNA binding protein fox-1 homolog 2, RRM domain, GST-SBP tag (RBFOX2, Homo sapiens, UniProt O43251-10, residues 100-194)
# Method: RNA Bind-n-Seq
# Form: RNA
# Matrix: in vitro
# Concentration: 365 nM
# Setting: natural RNA segment, single round, ends assumed
# Reference: no-protein control
# Direction: higher = stronger binding
# Residues (chain): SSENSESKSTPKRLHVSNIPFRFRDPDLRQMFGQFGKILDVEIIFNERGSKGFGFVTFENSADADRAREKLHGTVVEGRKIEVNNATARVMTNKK
Strand,RBNS enrichment (R)
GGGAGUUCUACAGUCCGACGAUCUUGCACUAGUGGGGACUGCUUUUCUCUCACUAAAUAUAGCAGUUAAUAUCCAGUCAUUAAGGAGUUGUCACUCUUCAUCAGAGUCACCGGACCUAUGCAAUUACAUGGGCUGGAAUUCUCGGGUGCCAA,1.75
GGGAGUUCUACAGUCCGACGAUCCGGUGUGGCAGCUUUUGGAUUUUUUUCCUCCGGGGAGCAUUGACUGUGUGGACAUUGUUUGAGGAGCUAGAAAGAAGAUCGGCUGGGGAUCACGAGCCCCUACUUCCCAAUGGAAUUCUCGGGUGCCAA,0.51
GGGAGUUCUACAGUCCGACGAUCUAUGGAAGGGGCCAAGAGGAGCUGCAAGGCAGCCCGGUUAGUGUUCGGGUGAAAUGGCAAGUUGUACAGCCCCCUCGGGCUUGUUUUGUGCUCUCCUGUCACAAAUGCUGUGGAAUUCUCGGGUGCCAA,0.679
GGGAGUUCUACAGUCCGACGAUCUACCCACCAAUGUCUCUGGGUUUUGUACCAGUCCCUGCUCUCAGGCCACCCUGCCCAGGACCCAGGCCCGCCUCCCCCUCCACACUCAGGAUGUCCUGCUCCAUCUGGCCUGGAAUUCUCGGGUGCCAA,0.563
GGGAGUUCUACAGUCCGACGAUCUCCCUUUCCAAGGGACACUGGGUUUGCAGACAGCAAGGCUAUGUGGCAGAGAAGAAAAAGUCCAGCAGACUCAGGACUCCUGGGCUGCAGGCCCCCCUCUGCCCUGAUCCUGGAAUUCUCGGGUGCCAA,0.291
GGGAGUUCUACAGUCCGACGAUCAUUAAUUUAUUCUUUUUUUCUUAAAGAAGAAAAAGACAUUGGUUGUUGUUACAAAAAGUCUAAAUUACUGUUGGUUGAAACACAGCAGCUGUGGAGUUCAGUCCAGGCAUUGGAAUUCUCGGGUGCCAA,0.418
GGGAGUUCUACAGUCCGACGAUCCUGAGAAGUCAAGAGAGGACAUUGGCUCACGCACUGUGAGAUUUUGUUUUUAUACUUGGAAGUGGUGAAUUAUUUUAUAUAAAGUCAUUUAAAUAUCUAUUUAAAAGAUAUGGAAUUCUCGGGUGCCAA,0.442
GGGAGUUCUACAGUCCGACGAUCUAAGACCUGGGUUUGGUUCUCAGCACCCAUGUGGCAACUUACAACCAUCCAUAGCUCCAGAUCCAGGGCAUCCAUUGCACCAGGUACACAUGCAGUGCACUUACAAACUUUGGAAUUCUCGGGUGCCAA,0.236
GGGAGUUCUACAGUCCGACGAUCGAGGCCCUUUCAAACAUGAUCAAAGAUUUCCCAAUGUGAUCUCAUCAUCAUGGAUACUCAAUUUGUUUUUUCUUAUAGAGAAAAUGAGUAUAUAAGACAAUAUACAAGAAUGGAAUUCUCGGGUGCCAA,0.38
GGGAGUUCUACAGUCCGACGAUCCAGGCUGACAAAAUGAUUCACACGAAUGUGACAACUCGGGCUCAGUUCACUCUGCUUCCCAACAGUGUAAAUGCAUAGCAGUGUUUACCUGCAUGAGAACUAUGCACUAAUGGAAUUCUCGGGUGCCAA,0.724
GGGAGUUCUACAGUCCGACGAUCCUUUGUACAUUUUUAUAUUAAAAAAAAAAAAAGACUAUUAAGGGACUUCAGAAUGUUGUAGGCCUCAUUAGAGCUUGUUCUCCAAAAACCUGCUUGAAAAAGGCAACGUGUGGAAUUCUCGGGUGCCAA,0.406
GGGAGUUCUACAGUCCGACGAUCUGUUUCCUACAGUGGGGGCCUGUGGGGUUGAGUCUUGAGGAAUCCCCUCAAAUGAGAAGGCCUUGGGAGAAGGCCUCAUCUCUGGCUGUUUCAUGAGCAACUCAUUCCUAUGGAAUUCUCGGGUGCCAA,0.68

# Set 3
# Target: Histone acetyltransferase KAT6A, both winged helices, GST fusion (KAT6A, Homo sapiens, UniProt Q92794, residues 1-181)
# Method: protein binding microarray
# Form: double-stranded DNA, one strand shown
# Matrix: in vitro
# Concentration: not given
# Setting: 8-mer, flanks averaged, mean of 2 arrays, mostly near background
# Reference: not given
# Direction: higher = stronger binding
# Construct (chain): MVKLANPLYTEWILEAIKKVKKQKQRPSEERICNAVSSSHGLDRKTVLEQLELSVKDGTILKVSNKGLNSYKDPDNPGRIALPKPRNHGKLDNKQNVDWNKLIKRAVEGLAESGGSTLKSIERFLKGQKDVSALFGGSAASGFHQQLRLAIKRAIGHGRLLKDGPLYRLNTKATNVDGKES
Strand,E-score
GTGCTCGA,-0.0288
GATTGTCC,-0.0512
ATGTTTGC,-0.0747
ATGACATC,0.137
CGAATCAG,-0.101
CGAGGAAA,-0.114
CCCAACCA,-0.212
ACGTCTAC,-0.0952
CAGTCGAC,0.125
ATTCTCAA,-0.14
CAATTAGC,0.094
ATACTTAA,-0.196
GAGGGGCC,-0.273
CAAATAGA,-0.0801
GTGTTGTA,-0.0661
CCGGGGTA,0.116
AAACTATG,-0.152
AATCGATT,0.0982
GTATCTGA,-0.0104
CTCCCTAA,-0.0809
ACTGTCAG,0.103
GGTTGTAA,-0.0835
GATCGATA,0.0333
ACGAACTG,-0.0527
GATTTTCA,-0.111

# Set 4
# Target: Sal-like protein 4, full length isoform B (SALL4, Homo sapiens, UniProt Q9UJQ4-2, residues 1-616)
# Method: universal PBM
# Form: double-stranded DNA, one strand shown
# Matrix: in vitro
# Concentration: not given
# Setting: 8-mer, flanks averaged, mean of replicates
# Direction: higher = stronger binding
Strand,E-score
GCGTGAGA,-0.108
CTCGGGCA,-0.187
AGCTTACG,-0.0154
AACATCTT,0.099
AATCAGCG,-0.161
CAGGCGAG,-0.244
AACACTAA,0.175
ACTCAGGA,-0.0857
ACTCTAAG,0.0068
CGTCGTCC,-0.244
CTAAACCC,0.0251
GGAGGCAC,-0.259
GAGATCCA,-0.143
AAAAGGGA,0.0942
AATCCGAC,0.0411
CCTAATAG,0.0183
GCGCTCGA,-0.233
AGAATCGA,-0.0761
CTGTGATC,-0.0567
CCCCCACA,-0.0541
CACTCAGC,-0.215
GAGCCATA,0.0665
AGAAGAAC,-0.0295

# Repeated from above (set 3):
Strand,E-score
GTATCTGA,-0.0104
CTCCCTAA,-0.0809
ACTGTCAG,0.103
GGTTGTAA,-0.0835
GATCGATA,0.0333
